Measurements of several laboratories.
Parts stem from different laboratories: compare values within a part only.

Block 1
Target: Sal-like protein 4, full length isoform A (SALL4, Homo sapiens, UniProt Q9UJQ4, residues 1-1053)
UniProt Q9UJQ4, sequence (whole entry, looked up): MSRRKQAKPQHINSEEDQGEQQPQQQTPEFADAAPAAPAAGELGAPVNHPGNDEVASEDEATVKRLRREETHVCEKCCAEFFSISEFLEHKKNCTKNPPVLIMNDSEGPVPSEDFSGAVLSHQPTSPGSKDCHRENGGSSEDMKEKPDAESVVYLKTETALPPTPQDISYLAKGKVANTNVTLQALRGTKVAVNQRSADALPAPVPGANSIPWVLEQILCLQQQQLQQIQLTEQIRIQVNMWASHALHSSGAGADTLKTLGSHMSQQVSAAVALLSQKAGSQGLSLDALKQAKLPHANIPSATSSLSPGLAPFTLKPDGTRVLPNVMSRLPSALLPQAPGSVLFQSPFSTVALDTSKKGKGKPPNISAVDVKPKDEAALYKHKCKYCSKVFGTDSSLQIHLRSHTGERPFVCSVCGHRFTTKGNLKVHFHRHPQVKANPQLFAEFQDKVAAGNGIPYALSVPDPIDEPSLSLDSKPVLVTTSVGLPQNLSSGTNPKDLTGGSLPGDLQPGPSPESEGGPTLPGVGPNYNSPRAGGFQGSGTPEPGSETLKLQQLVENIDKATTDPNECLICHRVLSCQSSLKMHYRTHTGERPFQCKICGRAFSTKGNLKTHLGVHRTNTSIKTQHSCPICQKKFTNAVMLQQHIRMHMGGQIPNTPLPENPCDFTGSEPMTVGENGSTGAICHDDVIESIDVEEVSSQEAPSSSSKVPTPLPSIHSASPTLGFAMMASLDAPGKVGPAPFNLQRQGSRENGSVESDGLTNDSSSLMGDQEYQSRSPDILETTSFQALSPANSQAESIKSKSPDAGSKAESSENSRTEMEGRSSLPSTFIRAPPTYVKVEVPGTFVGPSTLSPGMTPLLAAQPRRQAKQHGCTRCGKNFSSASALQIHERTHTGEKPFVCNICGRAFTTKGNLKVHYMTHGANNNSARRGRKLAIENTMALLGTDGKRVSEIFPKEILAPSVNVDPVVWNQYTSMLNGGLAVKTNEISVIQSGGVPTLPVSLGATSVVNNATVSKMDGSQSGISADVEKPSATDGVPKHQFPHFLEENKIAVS
Method: universal PBM
Form: double-stranded DNA, one strand shown
Sample: in vitro
Tested at: 600 nM
Notes: 8-mer, flanks averaged, mean of replicates
Direction: higher = stronger binding
Endpoint: E-score
CTTGCTAC: -0.0162
AAGGTGTG: -0.0136
CACGCGTG: -0.214
TTGATAAA: 0.297
AAAGGGCT: -0.137
GGCGCCGA: -0.289
AGAGCTCG: -0.118
ATCACTAG: 0.0323
TATCTGAA: 0.188
GATGTCCC: -0.204
AACCCGAG: -0.241
CGTAAGAG: -0.021
CAAATCCA: 0.122
AGCACGGA: -0.209
CAGTCATC: -0.165
GCGGACAA: -0.0144
ATGCTGGC: -0.0529
GGGGCAAA: -0.172
AGTAGCAT: 0.0562
ATCGAGTA: -0.0309
AAGCTAAT: 0.217
CACGATGC: -0.24
ACTAAAAT: 0.289

Block 2
Target: RNA binding protein fox-1 homolog 2, RRM domain, GST-SBP tag (RBFOX2, Homo sapiens, UniProt O43251-10, residues 100-194)
Method: RNA Bind-n-Seq
Form: RNA
Sample: in vitro
Tested at: 365 nM
Notes: natural RNA segment, single round, ends assumed
Baseline: no-protein control
Direction: higher = stronger binding
Endpoint: RBNS enrichment (R)
Constant ends, left off below: GGGAGUUCUACAGUCCGACGAUC … UGGAAUUCUCGGGUGCCAA
Residues (chain): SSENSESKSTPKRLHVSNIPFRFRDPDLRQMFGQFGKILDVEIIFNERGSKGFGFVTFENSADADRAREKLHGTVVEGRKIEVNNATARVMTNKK
AAUAGAAUAUUUAAGCUGUGACUGUAAGAAAUAAACAAGAGUAAACUGACAGGCCUUCCUUCACGUGGGGUCUCAGUGGUGGCCUACCAUGACAGCUUGGUCAGUGUGCC: 0.376
UAAUCAAUCAUGUACUUUAGUUUAAUGUAUAAAGAUCCUCUAGAAAAUGAUAAUAUUGUGUAUUAAGACAUUCCUUAAUUAGGACAAAAUGGCUGCUGUAUAUUUACUAU: 0.577
CCAGACACAGGCCGUGGGACCCAGGCUCCCAGCCUAAGGGAGACAGGCCUUUCCCUGCCGGCCCCCCAAGGAUGGGGUUCUUGUCCACGGGGCUCACUCUGGCCCCCUAU: 0.277
ACAAACCAGCUGCCAGCUUCUGGCUGCAAAACUGCCUGGUGAAAUUGACUUGCUUGGUUUCAUUCACCAAACCAACCCAAGUCGUGUCAUUCUUGCCUAUUAACAUCUGA: 0.305
GGCUUAUUAAAGGAAUGUUGGUUUACAUUGUCUUCAAAGACAAGUAUAGAAGCUGUAUGUGUAAGGGUGACUUAAAUCAUAUGUCACAUUGUCUAAACUAUUCAGACACU: 0.653
UCCGGGGCAUUCCUGUUGACCCAUCAGCCCCUUCUGUUCUGGCGGCAGGGGCCUUGGGGCUCCUGGAAGCCGUGAGGUUUCUGUUUAGGCCUUAACCGAAGGCAACCUCU: 0.176
GACAAUGAGGGCCGCAUGAAGAUCUGGUGCUGCGCGGAUGCUGCCCUGGUGAUGCUGUGUGCUGGGGCAUCCACCAGUGACUCAUUUAAAGGGGCUUGGUCAGGGUUGCU: 5.72
CAUAGAUCUCCACACCUGGCUUGUAACUAUUUUGAGGCUGAAAGAGCUAAUGAAGGGCCCUGCCUAGAUCCAGACUUUCUGACAUCAAAUUAGGGAAGUGGAGGAAAUUA: 0.661
CAUUUAAGUUUGGCCACAUUUCAAAGAAAAUUGAAGUCCCAGCCUCAGAGAGUGUCGGUGGUUAAAGUAAGAGAACAUUGGUUGGUCAGCAACGUGAUCUGUAACUUGAU: 0.989
UUUGUAAAUGUCUUAUUUGUGUAAUAAAGUUAAUGCAAGUAGAAGUGCUGGCACUGAAAUCCAGAACUGAUGGGAUUCCAUUUCUUUCCUGCUCUCUGGUGAAGGGCUUA: 0.412
UUAAUUAAAUAAAUAAAUAAAUCUGGGUCUGCAUCUCUUAUUAAAUAAAAAUAUAAAAAUAUGUACAUUACAUUUUGCUUAUUUUCAUAUAAAAGGUAAGACAGAGUUUG: 0.72
CAUCUUUACGAUAUAAAAUGAUGGCUCUCAAAUGAUUUUUCCAUCCAUUGUCCCGAUCCAGCUAUCACCCAGGGGUCCAUACAUUUUCUUCAUGUUUCUUCUUUGUAUAU: 0.948

Block 3
Target: Interferon regulatory factor 7, full length, phosphomimetic (IRF7, Homo sapiens, UniProt Q92985, residues 1-503, S471D/S472D/S475D/S476D/S477D/S483D/S484D/S487D)
Method: protein-binding microarray
Form: double-stranded DNA, one strand shown
Sample: in vitro
Tested at: 2200 nM top
Notes: 60-bp whole probe
Together with: salmon DNA 0.4 mg/ml
Baseline: random background probes
Direction: higher = stronger binding
Endpoint: fitted relative affinity
Constant ends, left off below: GCCTAGCAC … GTCTTGATTCGCTTGACGCTGCTG
Construct (chain): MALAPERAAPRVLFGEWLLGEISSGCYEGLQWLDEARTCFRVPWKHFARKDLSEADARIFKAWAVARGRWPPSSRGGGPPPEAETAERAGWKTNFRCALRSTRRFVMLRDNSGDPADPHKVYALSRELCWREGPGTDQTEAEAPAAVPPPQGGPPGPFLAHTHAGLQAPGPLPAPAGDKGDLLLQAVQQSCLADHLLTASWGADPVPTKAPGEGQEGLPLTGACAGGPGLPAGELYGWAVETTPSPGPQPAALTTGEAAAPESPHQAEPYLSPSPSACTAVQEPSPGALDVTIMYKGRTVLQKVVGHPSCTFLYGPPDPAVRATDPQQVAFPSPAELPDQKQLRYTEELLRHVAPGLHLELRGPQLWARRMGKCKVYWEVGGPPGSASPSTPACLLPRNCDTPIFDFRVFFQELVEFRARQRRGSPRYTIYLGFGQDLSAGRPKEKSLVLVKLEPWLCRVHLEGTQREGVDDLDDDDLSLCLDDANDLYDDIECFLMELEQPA
TCAAATTTCCATTTTCTACTGTGCTAG: 3.16 z-score
TTAGATTTCATTTCCGATTAGTGCTAG: 2.68 z-score
GACCGTCTCCTTTTCCTGACGTGCTAG: 1.87 z-score
TTAGATTTCGGGTTTCGATTGGTGCTA: 7.44 z-score
GACGGGATCGGGTTTCGGGACGTGCTA: 0.737 z-score
CACGGACTGGGGTATCGGGACGTGCTA: -0.889 z-score
AGAGCTGTCCTTTGCAACAGGTGCTAG: 0.00796 z-score
GACAGACTGCTTCTCCTGACGTGCTAG: 0.742 z-score
GACGGTATCGACCTTCGGGACGTGCTA: -0.122 z-score
TTAGATTTCAGTTGCGATTAGTGCTAG: 1.35 z-score
TTAGGTCACCTTTTCCTTTAGTGCTAG: 1.49 z-score
TTAGATTTCAGAATGGATTAGTGCTAG: -0.171 z-score
GACGGTCTCGGTCTCGGGAGGTGCTAG: 0.00468 z-score
GACGATTTCAGTATCGAGATGTGCTAG: 0.881 z-score
GACGGACTGATACTGCTGACGTGCTAG: -0.0281 z-score
TTAGACTTCAGACTGGATTAGTGCTAG: -0.534 z-score

Block 4
Target: RING finger protein unkempt homolog, zinc fingers 1-6, GST-SBP tag (UNK, Homo sapiens, UniProt Q9C0B0, residues 30-357)
UniProt Q9C0B0, sequence (30-357, looked up): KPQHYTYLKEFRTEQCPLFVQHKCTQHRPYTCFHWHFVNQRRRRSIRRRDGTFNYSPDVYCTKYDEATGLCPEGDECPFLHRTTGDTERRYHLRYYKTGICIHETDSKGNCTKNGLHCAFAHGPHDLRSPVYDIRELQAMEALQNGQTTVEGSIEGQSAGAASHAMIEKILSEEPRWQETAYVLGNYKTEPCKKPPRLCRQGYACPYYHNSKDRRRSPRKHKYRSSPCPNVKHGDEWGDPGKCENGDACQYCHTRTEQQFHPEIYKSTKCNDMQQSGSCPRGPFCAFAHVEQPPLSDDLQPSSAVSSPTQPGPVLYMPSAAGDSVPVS
Method: RNA Bind-n-Seq
Form: RNA
Sample: in vitro
Tested at: not given
Notes: RNA with constant flanks, human and mouse sites, ends assumed
Baseline: input RNA pool
Direction: higher = stronger binding
Endpoint: bound/input enrichment
Constant ends, left off below: GGGAGUUCUACAGUCCGACGAUC … CAACAGAGGAUUGAGCAUCA
GCCUAGUCUGUGUAAGCAAGAAGUAGGACCAAACUGAGGAAACUACUUGGUCCAUUUAGAUAGCAGUUUAUUCAUACUCAGUGACCCGCAGGCCUCCACCUCUGCUUGAGGGAAGGGCUU: 2.19 ratio
AAGCUAUAAUGAGUUUUUCUAAAUUAAGGGAACUCUGCUACUUCCUUUUUUUUUUUUUUUAAUAGUUGGUCUACAAGUGCGCAUUGGUAGGGUGUCCAGCAGAUGGAUGGGGGCUGAUGG: 1.53 ratio
CCCCCACACCCAGGAAUGGGCCCUCCACAGAGCCCCAUGGACCAGCACAGCCAAGGUUAUAUGUCACCACAUCCGUCUCCUCUGGGAGCCCCGGAGCACGUCUCUAGCCCUAUAUCUGGA: 0.305 ratio
AUUGGCACCAACUUCCAGCUGGGGCUGAAGGACGGCAUCAUAUUGUGCGAACUCAUAAACAAGCUACAGCCAGGCUCUGUGAAGAAAGUCAACGAAUCCUCACUAAAUUGGCCCCAGUUG: 0.103 ratio
ACAGAUGGGAAACACGGACUUAAGUGUAUGUUUCAUAUACUGACAGUGGGACAUGGUUCUAUAGAUCAAUUAUAAUAAUAAAUAUUUUAAUUUAUCAUAAUUUAUAAAAGCUUUGUUGUU: 15.7 ratio
AAUGUCAUCGAUGCCAAUUUCUGCAUGAAAGGAGAAGACCUGGACUCUCAGGUUGGAGUUAUAGAUUUUUCGAUGUAUCUCAAAGAUGGAAACAGUAGUAAAGGUAGUGAAGGGGAUGGA: 1.77 ratio
CAUCUCUCAUUUUAUAUGUCCAGAAAUGGCUUUGAAUUUUAAGCAAUUACUAGUUUUAAUUAGCUCUGCCCUCAUGAAGUAUUAUUAUAAUUCACCAUAAACAGCUAUCUGUCUGAAUUA: 50.7 ratio
GACAUUUGGACAUUACUGGGGACGGUGCUUUAUCCAUUCCUGGCCAUAUGGAGAUUAAUUAGCAAUUUUUUAUUUAGCAAUCCUCCUCCUGCACAGACUUCAGCAAGAGCCACAUCCACA: 442 ratio
GUAGAUGGUACCUUUCUAGUGUGGCAUGUGAAGUAUUUGGAUGAAUAUAAUCCUGGAAUAUUUAGACAAGUUCAGGUUUCUUUUUCUUCUCGGAUUCCUGUUGCAUUUCCCUCUGGUGAU: 0.424 ratio
GAGAAAGGCACCAUGGAGAAGAGUGGCCUGGAGUCCGCUGUCUGUGUGACCAAUGUCAGGUCAUUCACGUCUGCGUUUCUCUUCUCCAUUGAGGUUCAAGUGACCAUUGGGUUUGGAGGG: 0.109 ratio
GGUGUAUCUAACUGGUGCACAAAUUACAUCAGGAUCAAUCAUGAUUUCUUAAAGUCUGGAUAGCUGAUCCAAACCAACUAGGUACUUCCAUACGUAUAUGGAAUGGAAUGUGGUGUCCUU: 0.434 ratio
